Experimental data of several laboratories.
Every numbered part comes from another study and shows a few of its results, in no order.

Study 1 — technique: RNA Bind-n-Seq; molecule type: RNA; medium: in vitro; tested at: 100 nM; relative to: input RNA pool; reading: higher = stronger binding
Target: RING finger protein unkempt homolog, zinc fingers 1-6, SBP tag (UNK, Homo sapiens, UniProt Q9C0B0, residues 30-357)
Sequence of UniProt Q9C0B0 (30-357, looked up): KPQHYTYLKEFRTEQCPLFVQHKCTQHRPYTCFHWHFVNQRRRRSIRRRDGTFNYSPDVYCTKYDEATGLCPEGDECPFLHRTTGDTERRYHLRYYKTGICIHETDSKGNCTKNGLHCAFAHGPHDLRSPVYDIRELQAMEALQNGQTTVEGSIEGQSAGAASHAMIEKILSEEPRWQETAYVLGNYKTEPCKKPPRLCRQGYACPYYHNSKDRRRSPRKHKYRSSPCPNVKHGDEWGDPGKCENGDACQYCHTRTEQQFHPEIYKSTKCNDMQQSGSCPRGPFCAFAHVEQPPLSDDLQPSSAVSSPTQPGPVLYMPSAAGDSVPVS
Notes: RNA with constant flanks, vertebrate orthologous sites, ends assumed
`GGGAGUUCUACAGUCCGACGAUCUUACAGUCAUUGAUGGACUCUAUUUUUUUAUUAUUACUUGGACCUUGGUCGUUUUUAUACUAGCAAAAUGUCUUGUUUUGAUUUGUGUUUUUUUUUGGGGGGGGGAGGGCGUGAACUUGCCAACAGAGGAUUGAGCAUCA` gave a bound/input enrichment of 2.13 ratio.
`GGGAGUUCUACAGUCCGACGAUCCCUCCAGAAAAUGUUUAGCUUUCAAAUUGUGGCUGUUUUAGAUACUGGUUUUACUUUCUUUAGAAUUUUUUCCUGUUUCCCAUCUUCUCCUCCCCUGUUCCCAAGGUUUGACUCAUGGAACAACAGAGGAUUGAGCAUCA` has a bound/input enrichment of 2.45 ratio.
For `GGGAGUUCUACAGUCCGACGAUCUCUAUAGAAUUUUAAAGACACUUCCUUAUAAAGCACUUUGGCUCCUCCUAUAUUUAAUCGUAUUUACAUAUCUAUUUUUUAUAAAUAACAGUAUGAAUUCAAAGGGGACUCGUGGUGUUACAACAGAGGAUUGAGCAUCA`, the bound/input enrichment was 0.919 ratio.
For `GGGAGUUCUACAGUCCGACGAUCAGGGAUGGCCCCCAACCCCACCUCUGUUUAUUCUGUAAACUACAACCUAUAAAUAACCUUUAGCAUUCCUAUUGUAACAAAAUUAAUUUUUAUGAAAUAAAUUAUAUUUCCUAGUCUGAUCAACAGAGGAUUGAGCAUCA`, the bound/input enrichment was 1.06 ratio.
With `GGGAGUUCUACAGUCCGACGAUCAAGAACAGGAGCAGCAUAGACUGAGCUUUGGGGAAAUAAGCUUUGCUUUUUAUAUUUAAAUAGGAUACUUUUAUAUGAUGGGUGCUUUGAGUGUGAAUGCAGCAGGCUCUCCAUUUCAGACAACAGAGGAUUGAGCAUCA` the bound/input enrichment was 1.8 ratio.
For `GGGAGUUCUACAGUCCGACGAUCCAGCUGAUUCACUAAUUGGAAGAGCUGCCCAUAUAGCUGUUCUUGAUUCAGAAAUAUUUUUAGAAAAAUUCUUUCUGGUUGCUGCCCUCAAAUAUUUCCAGUAGGAUAAAAGCAUUGUUACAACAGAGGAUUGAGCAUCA`, the bound/input enrichment was 0.873 ratio.

Study 2 — technique: RNA Bind-n-Seq; molecule type: RNA; medium: in vitro; tested at: 20 nM; notes: 6-mer, flanks averaged, single round; added: 150 mM LiCl; relative to: input library; reading: higher = stronger binding
Target: TAR DNA-binding protein 43, full length, His tag (TARDBP, Homo sapiens, UniProt Q13148, residues 1-414)
`GCACUG`: “6-mer enrichment (R)” 0.909.
`UUUCGU` — result for “6-mer enrichment (R)”: 1.04.
Under “6-mer enrichment (R)”, `UUUACG` is recorded as 0.983.
For `UUCUAG`, “6-mer enrichment (R)” read 0.876.
`CGGCAG`: “6-mer enrichment (R)” 0.975.
For `AUGAGA`, “6-mer enrichment (R)” read 0.973.
`GUCAAA`: “6-mer enrichment (R)” 0.903.
`CAUCGU` — result for “6-mer enrichment (R)”: 0.867.
`AAUAGA` — result for “6-mer enrichment (R)”: 0.863.

Study 3 — technique: RNA Bind-n-Seq; molecule type: RNA; medium: in vitro; tested at: 200 nM; notes: whole 134-nt RNA, ends assumed; added: 150 mM LiCl; relative to: input library; reading: higher = stronger binding; library: 7-deaza-guanosine replaces G
Target: Ras GTPase-activating protein-binding protein 1, full length (G3BP1, Homo sapiens, UniProt Q13283)
Sequence of UniProt Q13283 (whole entry, looked up): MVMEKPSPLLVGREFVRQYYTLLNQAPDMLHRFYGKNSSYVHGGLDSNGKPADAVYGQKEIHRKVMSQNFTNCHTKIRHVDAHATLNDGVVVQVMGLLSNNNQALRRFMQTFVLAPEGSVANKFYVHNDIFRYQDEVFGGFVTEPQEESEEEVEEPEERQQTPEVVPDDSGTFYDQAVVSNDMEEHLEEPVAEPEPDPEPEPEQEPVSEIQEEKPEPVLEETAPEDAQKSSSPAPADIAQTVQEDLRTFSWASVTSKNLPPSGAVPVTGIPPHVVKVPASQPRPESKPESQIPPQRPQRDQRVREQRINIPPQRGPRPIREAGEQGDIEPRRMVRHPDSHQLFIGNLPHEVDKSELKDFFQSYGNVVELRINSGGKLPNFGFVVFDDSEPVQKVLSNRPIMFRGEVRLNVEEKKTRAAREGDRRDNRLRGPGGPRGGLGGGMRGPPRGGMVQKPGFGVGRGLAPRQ
With `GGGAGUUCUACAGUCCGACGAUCAGUCCUGUGCUACACAUCGUAUGUACCGAAUCGGGGAGGGGUGGGGUUUUUUUGGGGAAAGUAUUAUGUUACGCCGUUCGGAUCUGCACUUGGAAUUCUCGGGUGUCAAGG` the log2 enrichment was 0.379.
With `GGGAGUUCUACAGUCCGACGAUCUGGCCCUGGUGGCAUGCGGGGAGGAAGAGGUGGCCUCAUGGAUCGUGGUGGUCCCGGUGGGAUGUUCAGAGGUGGCCGUGGUGGAGACAGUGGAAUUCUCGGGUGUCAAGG` the log2 enrichment was 0.41.
`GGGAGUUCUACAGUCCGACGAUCCCUCAAGUCCUGUGCUACACAUCGUAUGUACCGAAUCGGAGGGAGGGGAGGGAAAGUAUUAUGUUACGCCGUUCGGAUCUGCACUUCCAGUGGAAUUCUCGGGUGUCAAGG` gave a log2 enrichment of -0.013.
With `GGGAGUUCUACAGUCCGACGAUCCCUGUGCUACACAUCGUAUGUACCGAAUCAAAUUUUUAAAUUUUUUUAAAUUUUUUUAAAAAAGUAUUAUGUUACGCCGUUCGGAUCUGCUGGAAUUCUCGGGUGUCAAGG` the log2 enrichment was -2.38.
For `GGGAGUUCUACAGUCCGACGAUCAGUCCUGUGCUACACAUCGUAUGUACCGAAUCGGGCCCCCGGCCCCCGGGCCCCCGGAAAGUAUUAUGUUACGCCGUUCGGAUCUGCACUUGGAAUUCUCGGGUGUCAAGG`, the log2 enrichment was -1.06.
For `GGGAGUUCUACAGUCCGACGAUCUUCAUUCCUUGGAAGAAGCUGUACCAUCGAUACCUGAUGAAUGAAGAGCAAGCUGUCAGCAAAGUGGACGGCAUCCUGUCUAACUGUGGCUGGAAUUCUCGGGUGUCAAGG`, the log2 enrichment was -2.43.
With `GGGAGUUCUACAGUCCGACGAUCAGUCCUGUGCUACACAUCGUAUGUACCGAAUCAAAUUUAAAUUUAAACCCCCCCAAAAAAGUAUUAUGUUACGCCGUUCGGAUCUGCACUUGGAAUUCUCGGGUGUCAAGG` the log2 enrichment was 1.46.
`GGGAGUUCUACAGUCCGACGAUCUGGCUUCGAAGUACAGUCUUUGCAGGAUGCAGGAAAUCAGCUUGGUAUGGAGGAUACAUCUCUGAGCUCUGGAAUGCUCACCCAGAACACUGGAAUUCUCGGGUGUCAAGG` has a log2 enrichment of -2.12.

Study 4 — technique: universal PBM; molecule type: double-stranded DNA, one strand shown; medium: in vitro; tested at: 600 nM; reading: higher = stronger binding
Target: Sal-like protein 4, full length isoform A (SALL4, Homo sapiens, UniProt Q9UJQ4, residues 1-1053)
Sequence of UniProt Q9UJQ4 (whole entry, looked up): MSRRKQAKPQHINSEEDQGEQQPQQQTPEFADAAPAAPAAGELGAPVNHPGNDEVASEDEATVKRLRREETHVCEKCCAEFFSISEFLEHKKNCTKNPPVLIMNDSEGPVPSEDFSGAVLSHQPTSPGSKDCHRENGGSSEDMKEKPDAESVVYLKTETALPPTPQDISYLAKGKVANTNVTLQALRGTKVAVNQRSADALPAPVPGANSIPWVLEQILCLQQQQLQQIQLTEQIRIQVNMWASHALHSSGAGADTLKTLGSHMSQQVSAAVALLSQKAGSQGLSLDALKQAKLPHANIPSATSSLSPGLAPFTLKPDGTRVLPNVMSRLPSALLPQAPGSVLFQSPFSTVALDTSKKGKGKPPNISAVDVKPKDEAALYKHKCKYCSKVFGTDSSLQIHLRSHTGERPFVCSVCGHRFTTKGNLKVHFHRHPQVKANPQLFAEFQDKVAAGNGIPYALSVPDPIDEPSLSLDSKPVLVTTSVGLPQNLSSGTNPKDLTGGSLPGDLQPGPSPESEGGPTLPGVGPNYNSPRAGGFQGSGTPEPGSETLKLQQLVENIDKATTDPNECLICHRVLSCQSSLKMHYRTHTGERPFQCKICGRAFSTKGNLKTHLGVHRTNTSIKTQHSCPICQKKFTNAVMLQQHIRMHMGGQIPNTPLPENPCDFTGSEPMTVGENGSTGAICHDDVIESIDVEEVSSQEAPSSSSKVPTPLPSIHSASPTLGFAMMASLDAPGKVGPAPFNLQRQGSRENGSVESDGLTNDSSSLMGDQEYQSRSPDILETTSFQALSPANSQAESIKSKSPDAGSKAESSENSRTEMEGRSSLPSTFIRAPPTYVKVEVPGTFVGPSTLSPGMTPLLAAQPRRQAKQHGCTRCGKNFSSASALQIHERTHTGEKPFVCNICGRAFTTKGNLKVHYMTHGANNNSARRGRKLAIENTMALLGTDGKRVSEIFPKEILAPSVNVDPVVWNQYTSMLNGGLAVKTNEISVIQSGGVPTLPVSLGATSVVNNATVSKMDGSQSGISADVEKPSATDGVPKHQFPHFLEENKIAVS
Notes: 8-mer, flanks averaged, mean of replicates
For `TCCTCCCA`, the E-score was 0.0301.
`CAGCGCTG` gave an E-score of -0.0689.
With `CGACGATA` the E-score was 0.0304.
`CCAATGTC` has an E-score of -0.0778.
With `GCTCGGAA` the E-score was -0.257.
The E-score of `AACAGGGT` is reported as -0.197.
`CACCAACG` has an E-score of -0.147.
`AAGTAGGT` has an E-score of -0.074.
The E-score of `CTATTTAC` is reported as 0.12.
With `ACGTGCCG` the E-score was -0.24.
`GAGGATGA` has an E-score of 0.0378.
With `CTTGAGTC` the E-score was -0.0811.
The E-score of `ACTTCCAG` is reported as -0.00462.

Study 5 — technique: protein binding microarray; molecule type: double-stranded DNA, one strand shown; medium: in vitro; tested at: not given; relative to: not given; reading: higher = stronger binding
Target: Histone acetyltransferase KAT6A, winged helix 2, GST fusion (KAT6A, Homo sapiens, UniProt Q92794, residues 85-181)
Notes: 8-mer, flanks averaged, mean of 2 arrays, mostly near background
Construct (chain): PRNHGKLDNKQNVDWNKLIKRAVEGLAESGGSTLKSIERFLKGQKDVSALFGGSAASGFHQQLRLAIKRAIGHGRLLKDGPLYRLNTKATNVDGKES
The E-score of `GCGGTTAC` is reported as 0.0533.
The E-score of `CCGAAGCA` is reported as 0.121.
`CTGTTGCC` gave an E-score of 0.0274.
The E-score of `ATTTCACA` is reported as -0.00982.
`GTCTCTAA` has an E-score of 0.0577.
The E-score of `CTGCGCTC` is reported as 0.0478.
With `AGCGTGTA` the E-score was -0.107.
For `CTGAGAAA`, the E-score was -0.0498.
For `CCACCCAA`, the E-score was -0.145.
`CGGCTCCA` has an E-score of 0.111.
With `CTCGGGGA` the E-score was 0.181.
For `CGTTTCCC`, the E-score was 0.0442.
`AACGCCTC` gave an E-score of -0.119.
With `ACCGCGCC` the E-score was 0.125.

Study 6 — technique: RNA Bind-n-Seq; molecule type: RNA; medium: in vitro; tested at: 365 nM; relative to: no-protein control; reading: higher = stronger binding
Target: RNA binding protein fox-1 homolog 2, RRM domain, GST-SBP tag (RBFOX2, Homo sapiens, UniProt O43251-10, residues 100-194)
Notes: natural RNA segment, single round, ends assumed
Target sequence (chain): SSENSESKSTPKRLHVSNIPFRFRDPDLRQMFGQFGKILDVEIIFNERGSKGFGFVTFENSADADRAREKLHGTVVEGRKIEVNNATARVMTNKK
`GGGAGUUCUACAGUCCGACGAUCAAAUUGACUAGAUAUCUGAGACAACAUGGAACUUCGGAUCAGUUUCUCUUUCAUGAGGGUGGAACUUGCACAGAAAAGAAGAAUAAUCGCAAGAAGAGAUUUGGGCUUAAUGGAAUUCUCGGGUGCCAA`: “RBNS enrichment (R)” 1.21.
`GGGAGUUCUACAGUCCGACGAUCAAAUUUGUUUUAUGCAUGAGUUAAUACCACUGGCUCAGCAAAUACAAGUUAGUUUGCUUUAAGCAGGUAACUUUUUUUGUAAUGGAAGAAAUGCACUACAAAGUUAAGACUGGAAUUCUCGGGUGCCAA` — result for “RBNS enrichment (R)”: 0.42.
`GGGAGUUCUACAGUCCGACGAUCAGACCGUGCCACCACAUGCCAGGUUAUCAAGCACCAGCAGCUGAUGGAACAGGCUGUGGCCCCUGAGUCAUCUGAAACCUUGACAGACAGUGAGACAAAUGGAAGUACUCUGGAAUUCUCGGGUGCCAA`: “RBNS enrichment (R)” 0.272.
`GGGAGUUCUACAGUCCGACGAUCUCCUUGUCCCCGCUUUCUUGGGGGCUUGCUACUUUUUGUCUUCUAUUGUGUGGCUUUCUGAGUAUUUGAACCCCAGUCCUGUGUCACCUUCCUUUUUCCUUCUAUGUCCCUGGAAUUCUCGGGUGCCAA` — result for “RBNS enrichment (R)”: 1.27.
Under “RBNS enrichment (R)”, `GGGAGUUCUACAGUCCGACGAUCUGAUGUGAUUAAAUUAUAGUUCCUGCUGUUAAAUUGCCUUUUGAAAACUUGGCUCCAGGGUUGGUGCUUCUUAAAUGGGGAAAGGCACAGUGAACUUCAGCCAUAUUAAGUGGAAUUCUCGGGUGCCAA` is recorded as 0.556.
Under “RBNS enrichment (R)”, `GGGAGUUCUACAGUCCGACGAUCAAAGUGUUCUGAGCCCAGUUCCUUGCCCCUCAAAACCCACAUCUGCUGUGACUUCUUAUCCAGGCCCCCAACUUAUGUCCUUAGGGUCAUCUUGGAGAACCACAAUGGAUUGGAAUUCUCGGGUGCCAA` is recorded as 0.252.
Under “RBNS enrichment (R)”, `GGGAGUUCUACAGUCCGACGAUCCUGGAAAAGGAGCUUCAGUAUUGUGGGGCUCAUAAAACAUGAAUCAAGCAAUCCAGCCUCAUGGGAAGUCCUGGCACAGUUUUUGUAAAGCCCUUGCACAGCUGGAGAAAUGGAAUUCUCGGGUGCCAA` is recorded as 0.342.
`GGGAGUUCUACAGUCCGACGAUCCCAGUGUCCCACGCUCAUUUUCCCUCCAUCCUGCGUUCCGCCUCCCUUGGUACUCAGCCUUUUGGGGACAGCUGGGGCCAGGACUGGGUCACCUAUGAGCUGAAUCAGCCUGGAAUUCUCGGGUGCCAA`: “RBNS enrichment (R)” 0.429.
`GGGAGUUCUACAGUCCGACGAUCGCGUUUUGCACUACUCUUUCCAUUUAUAUGCUGCAAACAACUACAGUCUUUGAAAUAUGGAAAAUCAGCAGUCUAAAGUUUGUUUUAAAUUCUAAAUUUAAAAAAUCUUCUGGAAUUCUCGGGUGCCAA`: “RBNS enrichment (R)” 0.626.
Under “RBNS enrichment (R)”, `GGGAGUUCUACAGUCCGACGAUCGUUGUUUCCCAAUCAAAGGUUAUUUCUAGAUGGCUAUAUGCUUUGUUGCAAUUUCUGCUUCCACCUAUUUUCCAAGCAUUUUACUUAAGAAGGAUACUGUGUAGUUGAACUGGAAUUCUCGGGUGCCAA` is recorded as 1.29.
`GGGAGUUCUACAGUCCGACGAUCCAUGAUGACAACUACAGAAAAACCAGAGGCAGCUUCUUUGCCAAGACCUUUCAAAGCCAUUUUAGGCUGUUAGGGGCAGUGGAGGUAGAAUGACUCCUUGGGUAUUAGAGUGGAAUUCUCGGGUGCCAA`: “RBNS enrichment (R)” 0.449.
`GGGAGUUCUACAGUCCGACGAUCCCCCUUGCUUCCAGGGAAGAUGAAGAGAGAGAGAUUUGGAAGGGGCUCUGGCUCCCUAACACCUGAAUCCCAGAUGAUGGGAAGUAUGUUUUCAAGUGUGGGGAGGAUAUUGGAAUUCUCGGGUGCCAA` — result for “RBNS enrichment (R)”: 7.21.
